Assay results from different studies.
Lines come from different studies, so protocols differ. ± marks the error that the study gave.

SMILES = CC[C@H](C)[C@H](NC(=O)[C@H](CCCNC(=N)N)NC(=O)[C@H](CCCCN)NC(=O)[C@H](Cc1ccc(O)cc1)NC(=O)[C@H](CC(=O)O)NC(=O)[C@H](C)NC(=O)CNC(=O)CCOCCOCCOCCNC(=O)CN1CCN(CC(=O)O)CCN(CC(=O)O)CCN(CC(=O)O)CC1)C(=O)N[C@H](C(=O)N[C@@H](CC(C)C)C(=O)N[C@@H](CCCCN)C(=O)N[C@H](C(=O)N[C@@H](CC(N)=O)C(N)=O)C(C)C)[C@@H](C)O [copper-64 labelled]; test = ex vivo gamma counting; test system = C57BL/6J male mice, B16-F10 tumour, liver; conditions = intravenous, 1.85 MBq, 5 min; quantity = tissue uptake; value = 2.47 ± 0.14 %ID/g
SMILES = CSCC[C@H](NC(=O)CNC(=O)[C@H](CCCCN)NC(=O)[C@H](CC(C)C)NC(=O)[C@@H]1CCCN1C(=O)[C@H](CO)NC(=O)[C@H](Cc1c[nH]cn1)NC(=O)[C@H](Cc1c[nH]c2ccccc12)NC(=O)[C@H](CCCNC(=N)N)NC(=O)[C@H](CC(C)C)NC(=O)[C@H](CCCNC(=N)N)NC(=O)[C@H](Cc1c[nH]c2ccccc12)NC(=O)[C@H](CS)NC(=O)CCCCCNC(=O)CN1CCN(CC(=O)O)CCN(CC(=O)O)CCN(CC(=O)O)CC1)C(=O)O [copper-64 labelled]; test = ex vivo biodistribution; test system = BALB/c nude mice, bone; conditions = intravenous, dose not given, 6 h, Huh-7 tumour-bearing; quantity = tissue uptake; value = 1.23 %ID/g
SMILES = COc1cccc(O)c1C(=O)/C=C/c1ccc2cc(N3CCCC3)ccc2c1; test system = C57BL/6J mice, kidney; conditions = intraperitoneal, 50 mg/kg single, 2 h; quantity = tissue concentration; value = 94.4 ng/g
SMILES = C[C@H](O)[C@@H](NC(=O)[C@H]1CCCN1C(=O)[C@@H](CCCCN)NC(=O)[C@@H](CO)NC(=O)[C@@H](Cc1ccc(O)cc1)NC(=O)[C@@H](CC(N)=O)NC(=O)CCOCCOCCOCCNC(=O)CN1CCN(CC(=O)O)CCN(CC(=O)O)CCN(CC(=O)O)CC1)C(=O)N[C@H](CC(=O)O)C(=O)N[C@H](CCCNC(=N)N)C(=O)N[C@H](CCC(N)=O)C(=O)N[C@H](Cc1ccc(O)cc1)C(=O)N[C@H](Cc1c[nH]cn1)C(=O)N[C@H](Cc1ccccc1)C(N)=O [gallium-68 labelled]; test system = BALB/c nude mice U-87 MG tumour, heart; conditions = intravenous, 1.85 MBq, 1 h, radiolabelled; quantity = tissue uptake; value = 0.06 ± 0.02 %ID/g
SMILES = CC[C@H](C)[C@H](NC(=O)[C@H](CCCCN)NC(=O)CNC(=O)[C@H](CC(C)C)NC(=O)[C@H](Cc1ccccc1)NC(=O)[C@H](CCCCN)NC(=O)[C@H](CO)NC(=O)[C@H](Cc1ccccc1)NC(=O)[C@H](Cc1c[nH]c2ccccc12)NC(=O)[C@H](CCC(N)=O)NC(=O)[C@@H](NC(=O)[C@H](Cc1ccccc1)NC(=O)CCCCCNC(=O)CN1CCN(CC(=O)O)CCN(CC(=O)O)CCN(CC(=O)O)CC1)C(C)C)C(=O)N[C@@H](CCC(=O)O)C(=O)N1CCC[C@H]1C(=O)N[C@@H](CC(=O)O)C(=O)N[C@H](C(=O)N[C@@H](CO)C(=O)N[C@@H](CCC(N)=O)C(=O)N[C@H](C(=O)N[C@@H](CCC(N)=O)C(=O)N[C@@H](CC(=O)O)C(=O)N1CCC[C@H]1C(=O)N[C@@H](CC(N)=O)C(=O)N[C@@H](CC(=O)O)C(=O)N[C@@H](CCC(N)=O)C(=O)N[C@@H](Cc1ccc(O)cc1)C(=O)N[C@@H](CCC(=O)O)C(=O)N1CCC[C@H]1C(=O)N[C@@H](Cc1ccccc1)C(=O)O)C(C)C)C(C)C [copper-64 labelled]; test system = C57BL/6 mice, male, naive, skeletal muscle; conditions = 4 h; quantity = tissue uptake; value = 0.66 ± 0.07 %ID/g
SMILES = CC(C)C[C@@H](NC(=O)[C@@H](CCCNC(=N)N)NC(=O)[C@@H](Cc1c[nH]cn1)NC(=O)[C@@H](Cc1c[nH]c2ccccc12)NC(=O)[C@@H](Cc1c[nH]cn1)NC(=O)[C@@H](Cc1ccccc1)NC(=O)[C@H](NC(=O)[C@@H](Cc1ccc(O)cc1)NC(=O)CNC(=O)CNC(=O)CCOCCOCCOCCNC(=O)CN1CCN(CC(=O)O)CCN(CC(=O)O)CC1)[C@H](C)O)C(=O)N[C@H](CC(N)=O)C(=O)N1CCC[C@@H]1C(=O)O [gallium-68 labelled]; test system = C57BL/6 mice, male, muscle; conditions = intravenous, 1.85 MBq, 60 min, together with: blocking antibody; quantity = tissue uptake; value = 0.57 ± 0.11 %ID/g
SMILES = CCCC[C@H]1C(=O)N(C)[C@@H](CCCC)C(=O)N[C@@H](CCCNC(=O)CN2CCN(CC(=O)O)CCN(CC(=O)O)CCN(CC(=O)O)CC2)C(=O)N[C@H](C(=O)NCC(N)=O)CSCC(=O)N[C@@H](Cc2ccc(O)cc2)C(=O)N(C)[C@@H](C)C(=O)N[C@@H](CC(N)=O)C(=O)N2CCC[C@H]2C(=O)N[C@@H](Cc2c[nH]cn2)C(=O)N[C@@H](CC(C)C)C(=O)N(C)CC(=O)N[C@@H](Cc2c[nH]c3ccccc23)C(=O)N[C@@H](CO)C(=O)N[C@@H](Cc2c[nH]c3ccccc23)C(=O)N1C [gallium-68 labelled]; test system = NOD/SCID mice with CHO-hPD-L1 xenograft, kidney; conditions = 10 min post injection; quantity = tissue uptake; value = 25.1 ± 4.09 %ID/g
SMILES = CC[C@H](C)[C@H](NC(=O)[C@H](CCCNC(=N)N)NC(=O)[C@H](CCCCN)NC(=O)[C@H](Cc1ccc(O)cc1)NC(=O)[C@H](CC(=O)O)NC(=O)[C@H](C)NC(=O)CNC(=O)CCOCCOCCOCCNC(=O)CN1CCN(CC(=O)O)CCN(CC(=O)O)CCN(CC(=O)O)CC1)C(=O)N[C@H](C(=O)N[C@H](C(=O)N[C@@H](CCCCN)C(=O)N[C@H](C(=O)N[C@@H](CC(N)=O)C(N)=O)C(C)C)C(C)C)[C@@H](C)O [copper-64 labelled]; test = ex vivo gamma counting; test system = C57BL/6J male mice, B16-F10 tumour, testis; conditions = intravenous, 1.85 MBq, 20 min; quantity = tissue uptake; value = 0.599 ± 0.016 %ID/g

For quick reference, copied from above:
SMILES = CC[C@H](C)[C@H](NC(=O)[C@H](CCCNC(=N)N)NC(=O)[C@H](CCCCN)NC(=O)[C@H](Cc1ccc(O)cc1)NC(=O)[C@H](CC(=O)O)NC(=O)[C@H](C)NC(=O)CNC(=O)CCOCCOCCOCCNC(=O)CN1CCN(CC(=O)O)CCN(CC(=O)O)CCN(CC(=O)O)CC1)C(=O)N[C@H](C(=O)N[C@@H](CC(C)C)C(=O)N[C@@H](CCCCN)C(=O)N[C@H](C(=O)N[C@@H](CC(N)=O)C(N)=O)C(C)C)[C@@H](C)O [copper-64 labelled]; test = ex vivo gamma counting; test system = C57BL/6J male mice, B16-F10 tumour, liver; conditions = intravenous, 1.85 MBq, 5 min; quantity = tissue uptake; value = 2.47 ± 0.14 %ID/g
